Assay results from different studies.
“And” joins repeats or separate records; there may be more than shown. ± marks the error that the study gave.

N=C(N)NCCC[C@@H](NC(=O)[C@H](N)Cc1c[nH]c2ccccc12)C(=O)N[C@H](CCCCN)C(=O)N[C@H](Cc1c[nH]c2ccccc12)C(=O)N[C@H](CCCNC(=N)N)C(=O)N[C@H](CCCCN)C(=O)N[C@H](Cc1c[nH]c2ccccc12)C(=O)N[C@H](CCCNC(=N)N)C(=O)N[C@H](CCCCN)C(=O)N[C@H](Cc1c[nH]c2ccccc12)C(=O)N[C@H](CCCNC(=N)N)C(=O)N[C@H](CCCCN)C(N)=O — survival (mouse; intraperitoneal, 30 mg/kg single dose, day 2): 100%
O=C1NC2(CC2)COc2ncc(F)cc2[C@H]2COCCN2c2ccn3ncc1c3n2 — serum sodium (Sprague-Dawley rat, male, serum; oral, 2.5 mg/kg/day, end of recovery, 4-week subacute toxicity): 145 ± 1 mmol/L
CC[C@H](C)[C@H](NC(=O)[C@H](CCCCN)NC(=O)CNC(=O)[C@H](CC(C)C)NC(=O)[C@H](Cc1ccccc1)NC(=O)[C@H](CCCCN)NC(=O)[C@H](CO)NC(=O)[C@H](Cc1ccccc1)NC(=O)[C@H](Cc1c[nH]c2ccccc12)NC(=O)[C@H](CCC(N)=O)NC(=O)[C@@H](NC(=O)[C@H](Cc1ccccc1)NC(=O)CCCCCNC(=O)CN1CCN(CC(=O)O)CCN(CC(=O)O)CCN(CC(=O)O)CC1)C(C)C)C(=O)N[C@@H](CCC(=O)O)C(=O)N1CCC[C@H]1C(=O)N[C@@H](CC(=O)O)C(=O)N[C@H](C(=O)N[C@@H](CO)C(=O)N[C@@H](CCC(N)=O)C(=O)N[C@H](C(=O)N[C@@H](CCC(N)=O)C(=O)N[C@@H](CC(=O)O)C(=O)N1CCC[C@H]1C(=O)N[C@@H](CC(N)=O)C(=O)N[C@@H](CC(=O)O)C(=O)N[C@@H](CCC(N)=O)C(=O)N[C@@H](Cc1ccc(O)cc1)C(=O)N[C@@H](CCC(=O)O)C(=O)N1CCC[C@H]1C(=O)N[C@@H](Cc1ccccc1)C(=O)O)C(C)C)C(C)C [copper-64 labelled] — tissue uptake (C57BL/6 mice, male, tumour-free, liver; 24 h): 21.6 ± 1.6 %ID/g
CCCCCCCCCCCCCCCC(=O)N[C@@H](CCC(=O)NCCOCCOCCC(=O)NCCOCCOCCC(=O)NCCCC[C@H](NC(=O)[C@H](CC(=O)O)NC(=O)[C@H](CC(C)C)NC(=O)[C@H](Cc1ccc(O)cc1)NC(=O)[C@H](CCCCN)NC(=O)[C@H](CO)NC(=O)[C@H](Cc1ccc(O)cc1)NC(=O)[C@H](CC(=O)O)NC(=O)[C@H](CO)NC(=O)[C@@H](NC(=O)[C@H](Cc1ccccc1)NC(=O)[C@@H](NC(=O)CNC(=O)[C@H](CCC(N)=O)NC(=O)[C@@H](CO)NC(=O)[C@@H](N)Cc1c[nH]cn1)[C@@H](C)O)[C@@H](C)O)C(=O)N[C@@H](CCCNC(=N)N)C(=O)N[C@@H](CCCNC(=N)N)C(=O)N[C@@H](C)C(=O)N[C@@H](CCC(N)=O)C(=O)N[C@@H](CC(=O)O)C(=O)N[C@@H](Cc1ccccc1)C(=O)N[C@H](C(=O)N[C@@H](CCC(N)=O)C(=O)N[C@@H](Cc1c[nH]c2ccccc12)C(=O)N[C@@H](CC(C)C)C(=O)N[C@@H](CC(C)C)C(=O)N[C@@H](CC(N)=O)C(=O)N[C@H](C(=O)NCC(=O)NCC(=O)N1CCC[C@H]1C(=O)N[C@@H](CO)C(=O)N[C@@H](CO)C(=O)NCC(=O)N[C@@H](C)C(=O)N1CCC[C@H]1C(=O)N1CCC[C@H]1C(=O)N1CCC[C@H]1C(=O)N[C@@H](CO)C(N)=O)[C@@H](C)O)C(C)C)C(=O)O — serum enzyme activity (refers to: ALT; Sprague-Dawley rat, female; subcutaneous, 500 µg/kg once daily, 14 days): 25.8 ± 6.7 U/L
C=Cc1c(C)c2cc3nc(c(CC(=O)O)c4[nH]c(cc5nc(cc1[nH]2)C(C)=C5CC)c(C)c4C(=O)O)[C@@H](CCC(=O)NCCCC[C@H](NC(C)=O)C(=O)N[C@@H](Cc1ccccc1)C(=O)N[C@@H](Cc1ccccc1)C(=O)N[C@H](C(=O)N[C@@H](CC(C)C)C(=O)N[C@@H](CCCCN)C(=O)N[C@@H](CO)C(=O)NCC(=O)N[C@@H](CCC(N)=O)C(=O)NCC(=O)N[C@@H](Cc1ccc(O)cc1)C(=O)N[C@@H](CCCNC(=N)N)C(=O)N[C@@H](Cc1c[nH]c2ccccc12)C(=O)N[C@@H](CC(=O)O)C(=O)N[C@@H](CO)C(=O)N[C@@H](Cc1ccc(O)cc1)C(=O)N[C@@H](CCCNC(=N)N)C(=O)N[C@@H](Cc1c[nH]c2ccccc12)C(=O)N[C@@H](Cc1c[nH]cn1)C(=O)N1CCC[C@H]1C(=O)N[C@@H](CO)C(=O)N[C@@H](CS)C(=O)N[C@@H](C)C(=O)N[C@@H](CS)C(=O)NCC(=O)NCC(=O)N[C@@H](CO)C(=O)N[C@@H](CCCCN)C(N)=O)C(C)C)[C@@H]3C — TNF level (mouse, 4T1 breast tumour, serum; concentration not given, 21 days after single dose): 40.7 pg/mL and 41.2 pg/mL and 36.6 pg/mL
CC(C)C[C@H](NC(=O)[C@H](CCCNC(=N)N)NC(=O)[C@H](Cc1ccccc1)NC(=O)[C@H](Cc1ccccc1)NC(=O)[C@@H](N)[C@@H](C)O)C(=O)N[C@@H](Cc1ccccc1)C(=O)N[C@@H](CC(N)=O)C(=O)N[C@@H](CCCNC(=N)N)C(=O)N[C@@H](C)C(=O)N[C@@H](CCCCN)C(=O)N[C@@H](CCCNC(=N)N)C(=O)N[C@@H](Cc1c[nH]cn1)C(=O)N[C@@H](Cc1c[nH]cn1)C(=O)NCC(=O)N[C@@H](Cc1ccc(O)cc1)C(=O)N[C@@H](CCCCN)C(=O)N[C@@H](CCCNC(=N)N)C(=O)N[C@@H](CCCCN)C(=O)N[C@@H](Cc1ccccc1)C(=O)N[C@@H](Cc1c[nH]cn1)C(=O)O — peptide concentration (HPLC-UV; human saliva; 2 h, 37 °C, together with: initial 1 mg/mL): 0.498 mg/mL
CSCC[C@H](NC(=O)CNC(=O)[C@H](CCCCN)NC(=O)[C@H](CC(C)C)NC(=O)[C@@H]1CCCN1C(=O)[C@H](CO)NC(=O)[C@H](Cc1c[nH]cn1)NC(=O)[C@H](Cc1c[nH]c2ccccc12)NC(=O)[C@H](CCCNC(=N)N)NC(=O)[C@H](CC(C)C)NC(=O)[C@H](CCCNC(=N)N)NC(=O)[C@H](Cc1c[nH]c2ccccc12)NC(=O)[C@H](CS)NC(=O)CCCCCNC(=O)CN1CCN(CC(=O)O)CCN(CC(=O)O)CCN(CC(=O)O)CC1)C(=O)O [copper-64 labelled] — tissue uptake (ex vivo biodistribution; C57BL/6J mice bearing B16-F10 tumours, liver; intravenous, 1.85 MBq, 0.5 h): 23.9 %ID/g
CC[C@H](C)[C@H](NC(=O)[C@H](Cc1c[nH]cn1)NC(=O)[C@H](CCCCN)NC(=O)[C@H](C)NC(=O)[C@H](C)NC(=O)[C@H](Cc1c[nH]cn1)NC(=O)[C@H](CCCNC(=N)N)NC(=O)CNC(=O)[C@H](Cc1c[nH]cn1)NC(=O)[C@H](CCCCN)NC(=O)[C@H](Cc1ccccc1)NC(=O)[C@@H](NC(=O)[C@H](CO)NC(=O)CNC(=O)[C@H](Cc1c[nH]c2ccccc12)NC(=O)CN)[C@@H](C)CC)C(=O)NCC(=O)N[C@@H](Cc1c[nH]cn1)C(=O)N[C@@H](C)C(=O)N[C@@H](C)C(=O)N[C@H](C(=O)N[C@@H](CC(N)=O)C(=O)N[C@@H](Cc1c[nH]cn1)C(=O)N[C@@H](Cc1ccc(O)cc1)C(=O)N[C@@H](CC(C)C)C(N)=O)C(C)C — acute toxic concentration (zebrafish embryos 28 hpf, E3 medium; 1 h): 25 µM
C[C@H](O)[C@@H](NC(=O)[C@H]1CCCN1C(=O)[C@@H](CCCCN)NC(=O)[C@@H](CO)NC(=O)[C@@H](Cc1ccc(O)cc1)NC(=O)[C@@H](CC(N)=O)NC(=O)CCOCCOCCOCCNC(=O)CN1CCN(CC(=O)O)CCN(CC(=O)O)CCN(CC(=O)O)CC1)C(=O)N[C@H](CC(=O)O)C(=O)N[C@H](CCCNC(=N)N)C(=O)N[C@H](CCC(N)=O)C(=O)N[C@H](Cc1ccc(O)cc1)C(=O)N[C@H](Cc1c[nH]cn1)C(=O)N[C@H](Cc1ccccc1)C(N)=O [gallium-68 labelled] — tissue uptake (BALB/c nude mice U-87 MG tumour, heart; intravenous, 1.85 MBq, 0.5 h, radiolabelled): 0.52 ± 0.33 %ID/g
COc1ccc(CNc2ccc3c(c2)S(=O)(=O)C=C3)cc1 — mean corpuscular volume (male C57BL/6 mice, blood; intraperitoneal, 5 mg/kg, day 8, group average): 51.2 fL
CSCC[C@H](NC(=O)[C@@H](NC(=O)[C@H](CC(C)C)NC(=O)[C@@H](NC(=O)[C@H](Cc1c[nH]cn1)NC(=O)CCCCCNC(=O)[C@H](CCCNC(=N)N)NC(=O)[C@H](CCCNC(=N)N)NC(=O)[C@H](CCCNC(=N)N)NC(=O)[C@H](CCC(N)=O)NC(=O)[C@H](CCCNC(=N)N)NC(=O)[C@H](CCCNC(=N)N)NC(=O)[C@H](CCCCN)NC(=O)[C@H](CCCCN)NC(=O)[C@H](CCCNC(=N)N)NC(=O)CNC(=O)[C@@H](N)Cc1ccc(O)cc1)C(C)C)C(C)C)C(=O)N[C@@H](CS)C(=O)N[C@@H](C)C(=O)N[C@H](C(N)=O)[C@@H](C)O — serum Creatinine (C57BL/6J mice; Alzet osmotic pump, 3 mg/kg, 8 weeks): 0.2 mg/dL
CC[C@H](C)[C@H](NC(=O)[C@H](CCCNC(=N)N)NC(=O)[C@H](CCCCN)NC(=O)[C@H](Cc1ccc(O)cc1)NC(=O)[C@H](CC(=O)O)NC(=O)[C@H](C)NC(=O)CNC(=O)CCOCCOCCOCCNC(=O)CN1CCN(CC(=O)O)CCN(CC(=O)O)CCN(CC(=O)O)CC1)C(=O)N[C@H](C(=O)N[C@H](C(=O)N[C@@H](CCCCN)C(=O)N[C@H](C(=O)N[C@@H](CC(N)=O)C(N)=O)C(C)C)C(C)C)[C@@H](C)O [copper-64 labelled] — tissue uptake (ex vivo gamma counting; C57BL/6J male mice, B16-F10 tumour, spleen; intravenous, 1.85 MBq, 5 min): 1.42 ± 0.212 %ID/g
CC[C@H](C)[C@H](NC(=O)[C@H](Cc1c[nH]c2ccccc12)NC(=O)c1ccccc1)C(=O)N[C@@H](CCCNC(=N)N)C(=O)N[C@@H](Cc1ccc(O)cc1)C(=O)N[C@@H](CCCCN)C(=O)N[C@@H](Cc1c[nH]c2ccccc12)C(=O)N1CCC[C@@H]1C(=O)N[C@@H](CCCNC(=N)N)C(=O)N[C@@H](CCCCN)C(=O)N[C@@H](CCCCN)C(=O)N[C@H](C(=O)N[C@@H](CCCNC(=N)N)C(=O)N[C@@H](Cc1ccc(O)cc1)C(=O)N[C@@H](Cc1c[nH]c2ccccc12)C(=O)N[C@H](C(=O)NCC(=O)N1CCC[C@H]1C(N)=O)[C@@H](C)O)C(C)C — melting temperature (circular dichroism; phosphate buffer; 30 µM, pH 6.5): 35.5 °C

Repeated from above:
CSCC[C@H](NC(=O)CNC(=O)[C@H](CCCCN)NC(=O)[C@H](CC(C)C)NC(=O)[C@@H]1CCCN1C(=O)[C@H](CO)NC(=O)[C@H](Cc1c[nH]cn1)NC(=O)[C@H](Cc1c[nH]c2ccccc12)NC(=O)[C@H](CCCNC(=N)N)NC(=O)[C@H](CC(C)C)NC(=O)[C@H](CCCNC(=N)N)NC(=O)[C@H](Cc1c[nH]c2ccccc12)NC(=O)[C@H](CS)NC(=O)CCCCCNC(=O)CN1CCN(CC(=O)O)CCN(CC(=O)O)CCN(CC(=O)O)CC1)C(=O)O [copper-64 labelled] — tissue uptake (ex vivo biodistribution; C57BL/6J mice bearing B16-F10 tumours, liver; intravenous, 1.85 MBq, 0.5 h): 23.9 %ID/g
